# Assay results of several laboratories.
# Lines come from different studies, so protocols differ. “And” joins repeats or separate records; there may be more than shown.
# Target: Death-associated protein kinase 2 (DAPK2, Homo sapiens, UniProt Q9UIK4)
Compound,test,setting,scale,endpoint,value
COc1cc(Nc2nccc(-c3cnn4nc(OC)ccc34)n2)cc(C(F)(F)F)c1,"binding, competition with immobilised ligand",1 µM,,remaining binding,92%
CNC(=O)C[C@H](Cc1ccc(C#N)cc1)NC(=O)c1cc(-c2ccc(CN[C@H](C)c3ccc(C)cc3)o2)ccc1Cl,"enzyme activity, inhibitor",1 µM,,activity vs control,117%
Cc1ccc(-c2c(/C=C(\C#N)C(=O)NC(C)C)n(CCCO)c3ncnc(N)c23)cc1,"cell-free assay, competition with immobilised ligand",1 µM,,remaining binding,100%
Cc1nc2c(F)cc(-c3nc(Nc4ccc(CNC(=O)CCCCCCC(=O)NO)cc4)ncc3F)cc2n1C(C)C,"enzyme activity, inhibitor",1 µM,,inhibition,46%
COCC12C(=O)NC3C4(C(OC)CC1O)C1CC5(O)C(OC)C(O)C(OC(C)=O)(C1C5OC(=O)c1ccccc1)C3(O)C(OC)C24 (stereo not drawn),"kinase activity, inhibitor, ProQinase kinase profiling",25 µM,baseline: control,remaining activity,96% and 99%
O=C=[N][Ru-4]123([n]4c5ccc(O)cc5c5c6c(c7cc(F)c[n+]1c7c54)C(=O)NC6=O)[S+]1CC[S+]2CC[S+]3CC1 (stereo not drawn),enzyme activity,"100 nM, human enzyme, with: 10 µM ATP",baseline: untreated,remaining activity,8%
CC(C)=CC1OC(C)(C)C2C=C3C(=O)C(Cl)=CC(O)C3C3C(O)C4OC4C(=O)C132 (stereo not drawn),"cell-free assay, competition with immobilised ligand",10 µM,,remaining binding,68%
Cc1cnc2nc1Nc1cccc(c1)COC/C=C/COCc1cc(ccc1OCCN1CCOCC1)N2,binding,0.1 µM,,remaining binding,91%
NC(=O)[C@@H](O)C[C@H]1CCc2sc3ncnc(O[C@H]4CC[C@H](N5CCOCC5)CC4)c3c21,"enzyme activity, inhibitor",10 µM,,inhibition,1%
CN1CCN(Cc2ccc(-c3ccc(CO[C@H]4CCC[C@@H]4NC(=O)c4cc(-c5cnn(C)c5)cnc4N)cc3)cc2)CC1,"enzyme activity, inhibitor",0.1 µM,,inhibition,12%
CNC(=O)C1CCN(c2cc(C)c(F)cc2NC(=O)c2ccc(-c3cc(O)ccc3C)c(C)c2)CC1,"binding, competition with immobilised ligand",1 µM,,remaining binding,97%
C=CC(=O)N1Cc2nc(-c3cc(-c4cc(Cl)cnc4Cl)c(F)cc3F)n(-c3ccncn3)c2C1,"cell-free assay, inhibitor",1 µM,,inhibition,4.4%

# Some of these lines once more:
Compound,test,setting,scale,endpoint,value
O=C=[N][Ru-4]123([n]4c5ccc(O)cc5c5c6c(c7cc(F)c[n+]1c7c54)C(=O)NC6=O)[S+]1CC[S+]2CC[S+]3CC1 (stereo not drawn),enzyme activity,"100 nM, human enzyme, with: 10 µM ATP",baseline: untreated,remaining activity,8%
COc1cc(Nc2nccc(-c3cnn4nc(OC)ccc34)n2)cc(C(F)(F)F)c1,"binding, competition with immobilised ligand",1 µM,,remaining binding,92%
